Assay results of several laboratories.
Numbered parts are unrelated; each lists some results of a single study. Values joined by “and” are separate records of one study, mostly repeats; a detail may differ. pIC50: −log10 of the molar value.
Chain of UniProt Q02750 (whole entry, looked up): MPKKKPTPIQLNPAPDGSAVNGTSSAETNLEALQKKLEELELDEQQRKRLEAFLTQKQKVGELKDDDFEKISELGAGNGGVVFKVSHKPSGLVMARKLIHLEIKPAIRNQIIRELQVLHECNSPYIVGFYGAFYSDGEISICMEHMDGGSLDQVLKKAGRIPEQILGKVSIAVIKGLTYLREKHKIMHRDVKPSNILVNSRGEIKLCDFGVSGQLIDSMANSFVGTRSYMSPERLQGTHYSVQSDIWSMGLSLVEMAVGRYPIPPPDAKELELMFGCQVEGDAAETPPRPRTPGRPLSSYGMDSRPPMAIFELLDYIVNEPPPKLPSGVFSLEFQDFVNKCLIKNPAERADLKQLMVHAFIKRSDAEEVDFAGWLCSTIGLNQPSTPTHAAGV
Chain of UniProt Q12851 (whole entry, looked up): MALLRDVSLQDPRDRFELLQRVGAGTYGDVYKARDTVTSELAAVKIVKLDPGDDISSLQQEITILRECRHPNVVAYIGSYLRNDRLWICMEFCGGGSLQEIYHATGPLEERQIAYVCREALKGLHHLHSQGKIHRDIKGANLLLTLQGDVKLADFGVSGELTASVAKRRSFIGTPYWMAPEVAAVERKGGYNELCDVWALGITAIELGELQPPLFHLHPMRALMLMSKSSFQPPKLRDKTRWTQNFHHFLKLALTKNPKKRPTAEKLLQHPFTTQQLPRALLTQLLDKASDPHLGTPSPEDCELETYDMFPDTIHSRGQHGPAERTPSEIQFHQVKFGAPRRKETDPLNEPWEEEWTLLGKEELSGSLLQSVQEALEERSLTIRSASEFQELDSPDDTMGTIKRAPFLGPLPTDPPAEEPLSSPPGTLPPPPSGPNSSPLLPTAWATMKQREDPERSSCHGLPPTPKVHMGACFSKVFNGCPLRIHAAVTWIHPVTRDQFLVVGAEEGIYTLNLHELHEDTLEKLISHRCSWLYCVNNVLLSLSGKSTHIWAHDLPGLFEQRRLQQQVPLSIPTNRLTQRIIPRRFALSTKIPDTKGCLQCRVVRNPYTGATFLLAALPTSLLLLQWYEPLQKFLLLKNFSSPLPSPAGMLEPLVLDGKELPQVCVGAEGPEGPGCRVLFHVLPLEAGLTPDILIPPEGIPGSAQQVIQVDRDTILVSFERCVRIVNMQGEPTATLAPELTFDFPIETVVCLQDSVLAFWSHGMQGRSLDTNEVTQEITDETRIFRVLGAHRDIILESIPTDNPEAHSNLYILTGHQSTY
Chain of UniProt Q13470 (whole entry, looked up): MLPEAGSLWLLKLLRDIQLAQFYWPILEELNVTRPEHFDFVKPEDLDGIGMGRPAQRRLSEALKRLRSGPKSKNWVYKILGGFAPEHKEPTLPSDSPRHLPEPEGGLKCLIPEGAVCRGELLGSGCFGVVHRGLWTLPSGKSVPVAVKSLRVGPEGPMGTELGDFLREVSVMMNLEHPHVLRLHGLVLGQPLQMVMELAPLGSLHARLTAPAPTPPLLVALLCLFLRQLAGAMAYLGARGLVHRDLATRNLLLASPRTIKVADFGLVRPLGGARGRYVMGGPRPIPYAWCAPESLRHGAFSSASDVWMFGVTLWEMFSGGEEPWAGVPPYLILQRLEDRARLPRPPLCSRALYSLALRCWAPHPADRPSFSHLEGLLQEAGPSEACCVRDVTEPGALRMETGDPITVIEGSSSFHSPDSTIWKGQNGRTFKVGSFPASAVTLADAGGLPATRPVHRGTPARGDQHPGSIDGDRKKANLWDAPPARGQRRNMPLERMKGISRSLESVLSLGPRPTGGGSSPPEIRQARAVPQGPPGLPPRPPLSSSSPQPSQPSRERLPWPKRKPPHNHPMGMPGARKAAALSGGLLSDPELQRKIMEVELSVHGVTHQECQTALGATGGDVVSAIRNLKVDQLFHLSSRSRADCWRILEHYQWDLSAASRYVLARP

Block 1 — cell line: mouse MPNST tumor cells; technique: high-content immunofluorescence imaging; refers to: nuclear SOX9; tested at: 10 µM; time: 12 h; setting: mean of 2 replicates; relative to: DMSO control; reading: higher = more nuclear SOX9
SMILES	nuclear SOX9 intensity
Cc1cc2c(s1)Nc1ccccc1N=C2N1CCN(C)CC1	118 % of DMSO and 108 % of DMSO
Cc1cc(CCC[C@H](CC(=O)NO)C(=O)N[C@H](C(=O)N[C@H](C)c2ccccc2)C(C)(C)C)ccc1-c1ccccc1	125 % of DMSO
COc1cc(N)c(Cl)cc1C(=O)NC1CCN(Cc2ccccc2)CC1	94.9 % of DMSO
Cc1ccsc1C(=CCCN1CCC[C@@H](C(=O)O)C1)c1sccc1C	97.5 % of DMSO and 104 % of DMSO
CCN1CCC[C@H]1CNC(=O)c1c(O)c(Cl)cc(Cl)c1OC	95.2 % of DMSO and 112 % of DMSO

Block 2 — action: antagonist
Target: Beta-1 adrenergic receptor (ADRB1, Homo sapiens, UniProt P08588)
Chain of UniProt P08588 (whole entry, looked up): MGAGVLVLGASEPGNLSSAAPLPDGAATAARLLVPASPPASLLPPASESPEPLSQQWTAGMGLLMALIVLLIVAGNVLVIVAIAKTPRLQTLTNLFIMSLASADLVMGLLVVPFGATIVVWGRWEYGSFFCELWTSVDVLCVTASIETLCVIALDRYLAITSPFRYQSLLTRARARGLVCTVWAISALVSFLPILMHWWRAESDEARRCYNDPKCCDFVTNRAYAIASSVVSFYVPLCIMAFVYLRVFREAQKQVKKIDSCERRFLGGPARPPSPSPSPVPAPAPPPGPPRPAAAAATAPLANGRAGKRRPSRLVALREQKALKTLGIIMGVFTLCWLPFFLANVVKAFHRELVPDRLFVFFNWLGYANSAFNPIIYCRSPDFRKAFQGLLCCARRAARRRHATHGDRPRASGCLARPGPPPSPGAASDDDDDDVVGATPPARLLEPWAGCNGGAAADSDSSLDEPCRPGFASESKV
SMILES	pIC50
O=C(Nc1ccccc1)Nc1ccc([C@@H](O)[C@H]2COCC(=O)N2Cc2ccc(F)cc2)cc1	≤ 4.00
CN(C)c1ccc(CN2CC[C@H](c3nc4ccc(C(F)(F)F)cc4[nH]3)C2)cc1	≤ 4.00
O=C1NCc2ccccc2CC12CCN(Cc1ccc3ccccc3n1)CC2	≤ 4.00
O=C(Nc1cccc(C(F)(F)F)c1)N[C@H]1CO[C@H]2[C@@H]1OC[C@@H]2Nc1nccc(-c2ccc(-c3ccccc3)cc2)n1	≤ 4.00
N[S+](=O)([O-])c1ccc(CCNCC2(O)CNCCOC2)cc1 (stereo not shown)	≤ 4.00

Block 3 — observed: enzyme activity; tested at: 5 µM; relative to: untreated control
Structure (SMILES): O=C(Nc1cnn(-c2csc(C(=O)NC3COC3)c2)c1)Nc1c(F)cccc1Cl
target	remaining activity [%]
MAP2K6 (Homo sapiens, UniProt P52564)	85
MAP4K2 (Homo sapiens, UniProt Q12851)	91
TNK1 (Homo sapiens, UniProt Q13470)	90.7

Block 4 — observed: enzyme activity; action: inhibitor; tested at: 77 µM; relative to: untreated
Target: DNA polymerase theta, ATPase domain (POLQ, Homo sapiens, UniProt O75417)
Chain of UniProt O75417 (whole entry, unmodified, looked up): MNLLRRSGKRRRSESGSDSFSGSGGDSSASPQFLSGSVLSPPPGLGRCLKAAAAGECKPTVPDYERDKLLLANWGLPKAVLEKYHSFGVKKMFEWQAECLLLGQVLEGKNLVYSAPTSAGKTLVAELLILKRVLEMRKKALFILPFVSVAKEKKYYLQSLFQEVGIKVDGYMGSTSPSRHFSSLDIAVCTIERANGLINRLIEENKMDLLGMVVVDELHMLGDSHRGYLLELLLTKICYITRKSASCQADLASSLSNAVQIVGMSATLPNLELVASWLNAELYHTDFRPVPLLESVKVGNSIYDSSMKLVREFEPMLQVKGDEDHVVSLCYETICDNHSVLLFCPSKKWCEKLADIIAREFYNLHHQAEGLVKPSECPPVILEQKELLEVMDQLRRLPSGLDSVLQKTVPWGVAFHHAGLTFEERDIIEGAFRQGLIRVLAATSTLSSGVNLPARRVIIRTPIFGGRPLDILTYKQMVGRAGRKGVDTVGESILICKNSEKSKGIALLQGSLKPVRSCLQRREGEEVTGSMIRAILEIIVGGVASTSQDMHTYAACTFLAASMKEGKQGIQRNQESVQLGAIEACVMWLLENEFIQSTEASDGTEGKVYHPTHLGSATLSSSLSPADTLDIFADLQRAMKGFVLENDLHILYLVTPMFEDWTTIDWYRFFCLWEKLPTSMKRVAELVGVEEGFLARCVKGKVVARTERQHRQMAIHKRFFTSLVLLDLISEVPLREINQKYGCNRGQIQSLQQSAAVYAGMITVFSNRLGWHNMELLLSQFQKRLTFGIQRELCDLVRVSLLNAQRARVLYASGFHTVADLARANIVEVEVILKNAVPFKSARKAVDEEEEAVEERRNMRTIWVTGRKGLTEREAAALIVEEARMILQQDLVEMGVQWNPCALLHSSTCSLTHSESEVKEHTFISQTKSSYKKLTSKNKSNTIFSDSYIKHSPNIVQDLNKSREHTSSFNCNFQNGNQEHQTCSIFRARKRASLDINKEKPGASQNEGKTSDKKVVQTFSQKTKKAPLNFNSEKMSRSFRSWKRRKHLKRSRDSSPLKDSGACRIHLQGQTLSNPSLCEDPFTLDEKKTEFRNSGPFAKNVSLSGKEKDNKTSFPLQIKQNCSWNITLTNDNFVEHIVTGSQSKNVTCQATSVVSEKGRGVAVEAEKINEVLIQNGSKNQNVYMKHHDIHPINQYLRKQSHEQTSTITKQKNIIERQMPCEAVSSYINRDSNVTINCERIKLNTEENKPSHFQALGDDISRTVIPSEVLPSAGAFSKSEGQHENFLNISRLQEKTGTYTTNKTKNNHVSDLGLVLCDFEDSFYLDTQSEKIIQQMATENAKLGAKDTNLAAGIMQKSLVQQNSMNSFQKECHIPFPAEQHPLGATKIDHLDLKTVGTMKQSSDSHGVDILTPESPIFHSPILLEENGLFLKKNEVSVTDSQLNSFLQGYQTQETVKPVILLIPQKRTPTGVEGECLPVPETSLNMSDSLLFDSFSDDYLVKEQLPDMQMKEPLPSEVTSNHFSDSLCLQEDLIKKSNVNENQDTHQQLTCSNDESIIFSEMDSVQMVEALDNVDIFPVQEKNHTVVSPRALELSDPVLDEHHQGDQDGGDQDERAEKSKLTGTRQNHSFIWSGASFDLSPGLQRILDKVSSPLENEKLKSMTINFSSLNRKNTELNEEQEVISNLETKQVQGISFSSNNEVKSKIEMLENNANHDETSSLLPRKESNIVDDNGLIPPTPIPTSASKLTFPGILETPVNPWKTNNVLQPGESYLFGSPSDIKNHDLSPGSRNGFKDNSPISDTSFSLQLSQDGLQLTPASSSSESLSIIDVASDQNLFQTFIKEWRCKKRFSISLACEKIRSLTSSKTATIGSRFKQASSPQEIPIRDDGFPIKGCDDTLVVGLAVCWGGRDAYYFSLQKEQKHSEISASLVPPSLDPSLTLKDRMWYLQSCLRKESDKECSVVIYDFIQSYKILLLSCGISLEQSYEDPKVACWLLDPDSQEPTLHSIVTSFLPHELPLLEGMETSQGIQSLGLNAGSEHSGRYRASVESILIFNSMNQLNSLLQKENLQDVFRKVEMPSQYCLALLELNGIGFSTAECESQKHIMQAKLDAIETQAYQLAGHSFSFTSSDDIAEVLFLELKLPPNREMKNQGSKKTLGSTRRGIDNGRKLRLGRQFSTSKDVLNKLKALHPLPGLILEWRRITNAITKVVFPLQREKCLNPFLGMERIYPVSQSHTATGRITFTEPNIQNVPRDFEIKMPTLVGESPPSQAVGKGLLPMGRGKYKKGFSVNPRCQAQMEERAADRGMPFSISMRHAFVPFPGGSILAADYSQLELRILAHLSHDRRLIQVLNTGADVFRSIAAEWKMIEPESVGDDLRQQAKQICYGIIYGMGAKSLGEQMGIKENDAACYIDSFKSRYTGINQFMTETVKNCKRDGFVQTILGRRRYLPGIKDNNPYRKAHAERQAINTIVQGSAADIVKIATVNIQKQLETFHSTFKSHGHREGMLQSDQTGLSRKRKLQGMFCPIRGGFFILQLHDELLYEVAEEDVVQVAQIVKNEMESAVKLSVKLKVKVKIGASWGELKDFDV
Structure (SMILES)	remaining activity [%]
CC1(C)CCC(CN2CCN(c3ccc(C(=O)NS(=O)(=O)c4ccc(NCC5CCOCC5)c([N+](=O)[O-])c4)c(Oc4cnc5[nH]ccc5c4)c3)CC2)=C(c2ccc(Cl)cc2)C1	95.5
OC[C@H]1NC[C@H](O)[C@@H](O)[C@@H]1O	102
CC[C@@]1([C@H]2O[C@H]([C@H]3O[C@@](O)(CO)[C@H](C)C[C@@H]3C)C[C@H]2C)CC[C@H]([C@@]2(C)CC[C@]3(C[C@H](O)[C@@H](C)[C@@H]([C@H](C)[C@H](OC)[C@@H](C)C(=O)O)O3)O2)O1	101
N#Cc1c(C2CCNCC2)cc(-c2c(O)cccc2OCC2CC2)nc1N	116

Block 5 — observed: cell-free assay; technique: competition with immobilised ligand; tested at: 1 µM
SMILES: O=S(=O)(NC1CCC(c2cc(F)ccc2F)(S(=O)(=O)c2ccc(Cl)cc2)CC1)C(F)(F)F (stereo not shown)
target	remaining binding [%]
BMP2K (Homo sapiens, UniProt Q9NSY1)	92
CDK13 (Homo sapiens, UniProt Q14004)	92
MARK4 (Homo sapiens, UniProt Q96L34)	100
MAP3K19 (Homo sapiens, UniProt Q56UN5)	84
MAP3K15 (Homo sapiens, UniProt Q6ZN16)	78
PIK3CA (Homo sapiens, UniProt P42336, Q546K)	91
CDC42BPB (Homo sapiens, UniProt Q9Y5S2)	100
STK32C (Homo sapiens, UniProt Q86UX6)	100
EGFR (Homo sapiens, UniProt P00533, del747-750/T751S)	100
NEK5 (Homo sapiens, UniProt Q6P3R8)	100
MAP3K3 (Homo sapiens, UniProt Q99759)	100
CSNK1D (Homo sapiens, UniProt P48730)	87
TTK (Homo sapiens, UniProt P33981)	70
EGFR (Homo sapiens, UniProt P00533, del746-750)	80
ACVR1B (Homo sapiens, UniProt P36896)	87
Non-receptor tyrosine-protein kinase TYK2, JH1 (TYK2, Homo sapiens, UniProt P29597)	100
Receptor-type tyrosine-protein kinase FLT3, autoinhibited (FLT3, Homo sapiens, UniProt P36888)	100
MAP2K1 (Homo sapiens, UniProt Q02750)	100
BMPR1B (Homo sapiens, UniProt O00238)	100

Block 6 — organism: Sarcocystis neurona; observed: parasite growth; tested at: 10 µM; time: 96 h
SMILES	inhibition [%]
O=C1N[C@H](C(=O)O)CS1	-6
Nc1nc(=O)c2nc(CNc3ccc(C(=O)N[C@@H](CCC(=O)O)C(=O)O)cc3)cnc2[nH]1	-17.5
CC(Oc1c(Cl)cccc1Cl)C1=NCCN1 (stereo not shown)	0.5
O=C1C(CC[S+]([O-])c2ccccc2)C(=O)N(c2ccccc2)N1c1ccccc1 (stereo not shown)	-16.4
